Measured values from different studies.
Each line is one published result; not all experiments were run side by side. ± marks the error that the study gave.

Cc1cc(Nc2ccc(NC(=O)c3ccc(Nc4ccnc5ccccc45)cc3)cc2)nc(N)n1
EC50 (KG-1; cell proliferation; 3 days, 15 % fetal calf serum): 4.4 µM

COc1cc(F)c([C@@H]2CNC(=O)[C@H]2NC(=O)Nc2ccccc2)c(F)c1
EC50 (differentiated HL-60; chemotaxis, agonist): 0.006 µM

[Au(mba)(PPh3)]
EC50 (BT-474; cell viability; 72 h): 3.51 ± 0.16 µM

Nc1nc(Cl)nc2c1ncn2[C@@H]1O[C@H](CO)[C@@H](O)[C@@H]1F
EC50 (ENT2 knockout; cell viability, MTT; 48 h, low affinity phase): 1230 µM

C[C@]12CC[C@H]3C(=CC=C4C[C@@H](O)CC[C@@]43C)[C@@H]1CC[C@@H]2C(=O)CO
EC50 (SK-MEL-188 pigmented melanoma; cell growth, inhibitor, MTT; 48 h): 0.118 µM

N=C(N)c1ccc(OCCCCCOc2ccc(C(=N)N)cc2)cc1
EC50 (WM-115, scrambled shRNA; cell growth, SYBR Green; high S100B): 11 ± 2 µM

CCCC(CCC)(C(=O)c1ccc(OCCN(C)C)cc1)c1ccccc1
EC50 (type 2 Gaucher disease patient cells, L444P/L444P; lysosomal calcium release; with: GPN): 4 to 4.4 µM

CC12OC(=O)C1(C(O)C1C=CCCC1)NC(=O)C2CCSC#N (centres unmarked)
EC50 (Jurkat; DNA fragmentation, propidium iodide flow cytometry; 24 h): 1 µM

CC[C@H](C)[C@H](NC(=O)[C@H](CCC(=O)O)NC(=O)[C@H](CC(=O)O)NC(=O)CNC(=O)[C@H](CC(C)C)NC(=O)[C@H](CCCNC(=N)N)NC(=O)[C@H](CCCNC(=N)N)NC(=O)[C@H](CC(C)C)NC(=O)CNC(=O)[C@H](CCC(N)=O)NC(=O)[C@@H](NC(=O)[C@H](CCSC)NC(=O)[C@H](Cc1c[nH]c2ccccc12)NC(=O)[C@@H](NC(=O)[C@H](CCC(=O)O)NC(=O)[C@@H]1CCCN1C(=O)[C@H](CCCNC(=N)N)NC(C)=O)[C@@H](C)CC)[C@@H](C)O)C(=O)N[C@@H](CC(N)=O)C(=O)N[C@@H](C)C(=O)N[C@@H](Cc1ccc(O)cc1)C(=O)N[C@@H](Cc1ccc(O)cc1)C(=O)N[C@@H](C)C(=O)N[C@@H](CCCNC(=N)N)C(N)=O
EC50 (Bcl-2/Myc 2924, permeabilized; mitochondrial depolarization, BH3 profiling, JC-1; 3 h): > 100 µM

Nc1ccn([C@@H]2O[C@H](CO)[C@@H](O)C2(F)F)c(=O)n1
EC50 (ENT2 knockout; cell viability, MTT; 48 h, low affinity phase): 2880 µM

CC1=C(C/C=C(\C)CCC[C@H](C)CCC[C@H](C)CCCC(C)C)C(=O)c2ccccc2C1=O
EC50 (UBIAD1-knockout FIXgla-PC HEK293 cells; vitamin K-dependent carboxylation, ELISA, item: FIXgla-PC): 0.0076 µM

CC(=O)OC1OC(OC(C)=O)[C@@H]2CCC=C[C@H]12 (some centres unmarked)
EC50 (human T-lymphocyte; cell growth or viability, MTT; 48 h): > 10 µM

CC[C@H](C)[C@H](NC(=O)[C@H](CCC(=O)O)NC(=O)[C@H](CC(=O)O)NC(=O)CNC(=O)[C@H](CC(C)C)NC(=O)[C@H](CCCNC(=N)N)NC(=O)[C@H](CCC(N)=O)NC(=O)[C@H](CC(C)C)NC(=O)[C@H](CO)NC(=O)[C@H](CCC(N)=O)NC(=O)[C@@H](NC(=O)[C@H](CC(C)C)NC(=O)[C@H](Cc1c[nH]c2ccccc12)NC(=O)[C@@H](NC(=O)[C@H](CCC(=O)O)NC(=O)[C@@H]1CCCN1C(=O)[C@H](CCCNC(=N)N)NC(C)=O)[C@@H](C)CC)[C@@H](C)O)C(=O)N[C@@H](CC(N)=O)C(=O)N[C@@H](C)C(=O)N[C@@H](Cc1ccc(O)cc1)C(=O)N[C@@H](Cc1ccc(O)cc1)C(=O)N[C@@H](C)C(=O)N[C@@H](CCCNC(=N)N)C(N)=O
EC50 (Pfeiffer, permeabilized; mitochondrial depolarization, BH3 profiling, JC-1; 3 h): > 100 µM

CO[C@H]1C[C@@H]2CC[C@@H](C)[C@@](O)(O2)C(=O)C(=O)N2CCCC[C@H]2C(=O)O[C@H]([C@H](C)C[C@@H]2CC[C@@H](O)[C@H](OC)C2)CC(=O)[C@H](C)/C=C(\C)[C@@H](O)[C@@H](OC)C(=O)[C@H](C)C[C@H](C)/C=C/C=C/C=C/1C
EC50 (neuroblastoma tumour-initiating cells; sphere formation; 6 days, retreated on day 3, mean over lines): 0.00011 µM

A few entries again:
Cc1cc(Nc2ccc(NC(=O)c3ccc(Nc4ccnc5ccccc45)cc3)cc2)nc(N)n1
EC50 (KG-1; cell proliferation; 3 days, 15 % fetal calf serum): 4.4 µM

CC(=O)OC1OC(OC(C)=O)[C@@H]2CCC=C[C@H]12 (some centres unmarked)
EC50 (human T-lymphocyte; cell growth or viability, MTT; 48 h): > 10 µM
